# Assay results from different studies.
# Every numbered part comes from another study and shows a few of its results, in no order. Changes are numbered by the printed parent chain.

# Set 1
# Target: RING finger protein unkempt homolog, zinc fingers 1-6, GST-SBP tag (UNK, Homo sapiens, UniProt Q9C0B0, residues 30-357)
# Technique: RNA Bind-n-Seq
# Form: RNA
# Medium: in vitro
# Concentration: not given
# Notes: RNA with constant flanks, human and mouse sites, ends assumed
# Baseline: input RNA pool
# Reading: higher = stronger binding
# All sequences stand within: GGGAGUUCUACAGUCCGACGAUC … CAACAGAGGAUUGAGCAUCA
# Residues (chain): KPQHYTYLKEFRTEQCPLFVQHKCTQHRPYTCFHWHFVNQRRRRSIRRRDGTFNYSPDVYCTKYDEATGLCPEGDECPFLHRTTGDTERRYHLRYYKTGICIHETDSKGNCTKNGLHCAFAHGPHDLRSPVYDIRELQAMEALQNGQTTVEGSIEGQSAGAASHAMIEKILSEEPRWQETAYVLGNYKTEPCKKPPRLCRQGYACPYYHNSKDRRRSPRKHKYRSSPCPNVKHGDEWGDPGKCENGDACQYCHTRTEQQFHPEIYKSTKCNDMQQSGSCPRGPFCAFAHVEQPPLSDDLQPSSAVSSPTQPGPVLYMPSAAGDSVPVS
Strand,bound/input enrichment [ratio]
CGAUUCUCGUUGGCUGAUGGAACUAUAGUGACUGCACAGACAAAAAGCAAACUCUUCCGAAAUCCUGUAACAAAUGAUCGACAUGGCUUUGUCUCAACCCACUUCCUUCAGAGAGAACAG,0.357
GAGGUCCUGAGGCAGGAAGACAAAGCUGAAGCUAUGUCUGGCCACAUUGAUCAGUUUCUGAUAGCAACAUUCAUGCAGCUAAGACUCAUCUACAGCACACACAUGGCAGAUGAGAAGUUG,0.231
GCUUCUUGGGAUACCUUUCUCAUGCUAUGGAAUUUCAAGCCACAUGCUAGAGCUUACAGAUAUGUGGGUCACAAGGAUGUUGUAACCAGCGUGCAGUUUUCUCCACAUGGAAACUUAUUG,0.0842
CACCCUAUAGAGGUAGUUGUCACACACACACACACACACACACACACACUGUUCACUUCCUAGCUCCUUUCCCCUCCACCUUUCUUUCAGAGUUUGUUCUCAUUUUUCAGAAUUCUUCUG,3.25
UGGGAUAAAAGCAAAGCAGAAUCAGCUGUGACCAAACAAGACCAGAUUUCUGCCUCUGAGCUCAGGCAAGCUAAUGGACCAUUGUCAAAUGGUUUGGAAAACCCUGCUACUACUCCUCUA,0.0509
UGGUGAUCGAGUUUCUCUUCCGCCAGAGCAAAAUCAGUGAGGUCCUGGGAGGCAGCGGCUACAAUUCAGACAGGCUCUGCCUGCCGUACAUCCCUCAGCUGACAGAUGAAGAUCGCUUGU,0.0641
CUCCGGAGAUCUGCAUAUCCCCACCGUUUGAAUCUCUUUUACCUUGCCAAUGAUGUCAUACAGAACUGUAAAAGGAAAAAUGCAAUCAUAUUCCGUGAAUCAUUUGCUGAUGUACUUCCU,0.287
CUUGAGGUAUUAAUUAAUCUCCGCAACCCAAAUUAUGAAAAUGGUGAUUCUCUUAGUUUUAGGACUCAUUUGGGUUUAAUCCAAGUUCCUCUGAAAGUAAAAGACAUCCCUGAAUUGAAA,0.648
ACAAGUGAAGAGGGAUCUGGAGACUUGGAUAAUCUAGAUGCUAUUCUUGGUGAUCUGACUAGUUCUGACUUUUACAAUAAUUCCAUAUCCUCAAAUGGUAGUCAUCUGGGGACUAAGCAA,1.21
CAGAAAAUUUACAACAAAAUCCCAGGGACCAGCAACAAUGGAUUAGAGGAGGAGUUUAAGAAGUUAACAUCAAUCAAAAUCCAGAAUGACAAGAUGCGGACUGGAAACCUUCCAGCCAAC,0.197
UAAAUCCCUCCCUCAAGAAUGGCUUUGGUGUGAAACGUGGUGUGAUGACGCCUCUAAGAAAAGGGCAAAAACCAUUGAUUUGUGUAAUAAUCCGAUGACCAAAGAGCCGAAACUGGAAGC,0.309

# Set 2
# Target: CCNE1, cyclin fold, Cln2 fusion (human)
# Technique: yeast growth competition, sequencing
# Medium: yeast
# Notes: weak parent motif
# Baseline: not given
# Reading: higher = stronger binding
# Starting sequence: CABLES2 docking peptide (human); ICAKRSLCAAFSV
Change,normalised enrichment score
V13A,0.457
L7A,-0.166
R5A,0.327
S12A,0.592
F11A,-0.0562

# Set 3
# Target: Sal-like protein 4, full length isoform A (SALL4, Homo sapiens, UniProt Q9UJQ4, residues 1-1053)
# Chain of UniProt Q9UJQ4 (whole entry, looked up): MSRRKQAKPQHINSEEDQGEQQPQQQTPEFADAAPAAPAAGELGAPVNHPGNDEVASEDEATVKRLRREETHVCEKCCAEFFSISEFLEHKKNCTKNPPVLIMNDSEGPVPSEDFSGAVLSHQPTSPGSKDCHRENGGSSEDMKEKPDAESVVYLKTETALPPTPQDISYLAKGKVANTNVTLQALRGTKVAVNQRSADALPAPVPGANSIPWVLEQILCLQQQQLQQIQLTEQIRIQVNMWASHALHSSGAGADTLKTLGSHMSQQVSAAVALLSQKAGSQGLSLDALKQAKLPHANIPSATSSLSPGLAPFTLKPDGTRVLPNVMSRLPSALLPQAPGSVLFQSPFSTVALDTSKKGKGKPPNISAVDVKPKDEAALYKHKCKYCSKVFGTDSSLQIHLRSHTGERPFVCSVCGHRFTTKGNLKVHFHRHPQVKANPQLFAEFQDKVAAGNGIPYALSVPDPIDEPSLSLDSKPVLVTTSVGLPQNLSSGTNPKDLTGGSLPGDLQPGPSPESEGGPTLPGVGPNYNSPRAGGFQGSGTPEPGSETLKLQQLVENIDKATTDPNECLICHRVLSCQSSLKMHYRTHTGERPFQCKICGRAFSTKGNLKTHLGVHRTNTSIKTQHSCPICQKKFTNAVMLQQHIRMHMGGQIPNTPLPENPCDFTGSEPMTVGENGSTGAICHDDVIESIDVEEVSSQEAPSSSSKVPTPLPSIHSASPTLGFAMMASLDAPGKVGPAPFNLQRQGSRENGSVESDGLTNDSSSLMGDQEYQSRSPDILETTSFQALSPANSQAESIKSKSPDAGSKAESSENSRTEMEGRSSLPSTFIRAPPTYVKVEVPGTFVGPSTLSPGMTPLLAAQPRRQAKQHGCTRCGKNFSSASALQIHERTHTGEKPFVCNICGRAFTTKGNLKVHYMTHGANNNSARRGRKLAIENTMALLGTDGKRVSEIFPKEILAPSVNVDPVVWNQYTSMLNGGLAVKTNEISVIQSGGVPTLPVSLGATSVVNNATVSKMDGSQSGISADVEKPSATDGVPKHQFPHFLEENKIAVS
# Technique: universal PBM
# Form: double-stranded DNA, one strand shown
# Medium: in vitro
# Concentration: 600 nM
# Notes: 8-mer, flanks averaged, mean of replicates
# Reading: higher = stronger binding
Strand,E-score
CACGCATA,0.00569
AAATAACG,0.299
GAGCTTGC,-0.261
ATTTCCAC,0.181
GCGCGAGA,-0.101
CCCCCTCG,-0.312
CGTATGCC,-0.16
AAGTGCAG,-0.0596
AGTCAAGG,-0.0363
AAATTGTC,0.166
AAAGCGGA,0.00601
GCCGTCGA,-0.287
CTTGTGCA,0.0326
CGTAGGTC,-0.164
ATAGTCCC,-0.0624
CCATGGGC,-0.349
GAGATGGA,-0.202
CAGCTCTA,-0.127
GGGTAATA,0.223
AGCGCCGC,-0.356
ACGTTATC,0.112
AGAACCGC,-0.0712
CATTCGGG,-0.214
CTCCCCAG,-0.201
GCATCCGC,-0.129

# Set 4
# Target: NFIL3, bZIP domain (human)
# Technique: DHFR protein complementation
# Medium: yeast
# Notes: single substitutions, most at no-binding floor
# Baseline: wild-type JUN-FOS pair
# Reading: higher = stronger binding
# Starting sequence: JUN, bZIP domain (human); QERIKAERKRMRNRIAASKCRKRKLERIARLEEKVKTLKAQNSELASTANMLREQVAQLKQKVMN; partner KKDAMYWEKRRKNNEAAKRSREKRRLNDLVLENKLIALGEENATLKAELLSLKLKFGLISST
Change,binding fitness [natural log]
T37N,-1.44
K36I,-1.33
T48I,-1.28
L31C,-1.51
L52N,-1.5
A49K,-1.45
E33D,-1.42
A57K,-1.45
S47Y,-1.5
M51Y,-1.51
T48P,-1.53
V35C,-1.55
Q41K,-1.32
E32W,-1.58
A40T,-1.4
L45A,-1.55
A49D,-1.52
Q58V,-1.4
A46Y,-1.01
V35L,-1.25
L31Y,-1.39
L38I,-1.53
L45M,-1.5
K39Y,-1.45
K34M,-1.44

# Set 5
# Target: Histone acetyltransferase KAT6A, winged helix 1, GST fusion (KAT6A, Homo sapiens, UniProt Q92794, residues 1-85)
# Technique: protein binding microarray
# Form: double-stranded DNA, one strand shown
# Medium: in vitro
# Concentration: not given
# Notes: 8-mer, flanks averaged, mean of 2 arrays, mostly near background
# Baseline: not given
# Reading: higher = stronger binding
# Residues (chain): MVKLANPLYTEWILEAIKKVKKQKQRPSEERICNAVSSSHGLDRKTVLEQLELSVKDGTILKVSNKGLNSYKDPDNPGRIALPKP
Strand,E-score
CATCTCTC,-0.0588
ACGCGTCT,0.304
CGACCTTA,0.043
AATCAGCA,-0.25
CCCATCGA,-0.155
AACAATCC,0.0211
CAGGCTGA,-0.0351
CTATTCAG,-0.186
ATCGCCAA,0.0274
AGTACCAA,-0.121
GGCAGTTA,-0.0134
TACAAAGA,-0.134
ATCTTTGG,-0.293
AGCTGAAT,-0.183
GCGGCAAA,0.316
GAGTGCAC,-0.184

# Set 6
# Target: Interferon regulatory factor 5, full length, phosphomimetic (IRF5, Homo sapiens, UniProt Q13568-2, residues 1-514, S451D/S453D/S456D/S462D)
# Technique: protein-binding microarray
# Form: double-stranded DNA, one strand shown
# Medium: in vitro
# Concentration: 940 nM top
# Notes: 60-bp whole probe
# With: salmon DNA 0.4 mg/ml
# Baseline: random background probes
# Reading: higher = stronger binding
# All sequences stand within: GCCTAGCAC … GTCTTGATTCGCTTGACGCTGCTG
Strand,fitted relative affinity
TCATGTCCCCCTTTTATACTGTGCTAG,0.435 z-score
GACGGTTTCCTTATCATGACGTGCTAG,1.67 z-score
TCATAATTCACTATTACACTGTGCTAG,0.744 z-score
TTAGGTATCCTTTTCCTCTAGTGCTAG,0.785 z-score
TCAGTTTTCAATTTTTGACTGTGCTAG,0.794 z-score
TTAGAACCGGGGACTGGATTAGTGCTA,-0.17 z-score
TTAGGCTTCGGGTATCGGTTAGTGCTA,2.59 z-score
TTAGATCTCAGTTCCGATTAGTGCTAG,1.29 z-score
ATAAACTTAGTTTTCAATTTGTGCTAG,0.0294 z-score
TTAGGACTGGACTATCGCTTAGTGCTA,-0.552 z-score
TTAGGTCCCGGTTTCGGTTAGTGCTAG,7.81 z-score
GACGGTTCCGGTTTCGGGCCGTGCTAG,4.96 z-score
GATGGTTTCCTTATCCTGACGTGCTAG,2.12 z-score
GACGAGCTGGGGTATCGAGACGTGCTA,1.11 z-score
TTAGGTATCGGTATCAGTTAGTGCTAG,9.76 z-score
CAGATGGAATTAAGAAGATGGTGCTAG,-0.682 z-score
CTATGTCTGTTTTTGCTTTCGTGCTAG,1.41 z-score
TTATATTTCAGTTCCGATTAGTGCTAG,2.2 z-score
TTAGATATAGGGTATCGATTAGTGCTA,1.56 z-score
TGAGGTATCCTTATCCTTTAGTGCTAG,0.0726 z-score
TATAGTTATTTTTATTAAAAGTGCTAG,0.473 z-score

# Set 7
# Target: ABI1, truncated, D143A, DHFR fusion (Arabidopsis thaliana)
# Technique: DHFR PCA, deep sequencing
# Medium: yeast
# Notes: methotrexate growth selection, single substitutions
# With: (+)-ABA 1.4 µM
# Baseline: wild-type fitted maximum
# Reading: higher = stronger binding
# Starting sequence: PYL1, truncated, DHFR fusion (Arabidopsis thaliana); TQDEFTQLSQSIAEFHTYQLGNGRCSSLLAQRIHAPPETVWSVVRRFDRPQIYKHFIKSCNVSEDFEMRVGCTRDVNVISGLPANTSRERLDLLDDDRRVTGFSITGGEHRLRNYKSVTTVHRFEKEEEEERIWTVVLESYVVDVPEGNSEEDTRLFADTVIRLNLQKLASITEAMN
Change,relative binding score [%]
D144E,12
F103W,-1.05
E131D,77.1
I162V,73.1
E67T,53
L20W,30.3
D3M,26.9
S59Q,27.8
T106E,35.3
Y115R,-2.65
F103S,-2.55
N165M,15

# Excerpt of the above (set 6):
Strand,fitted relative affinity
TCATGTCCCCCTTTTATACTGTGCTAG,0.435 z-score
GACGGTTTCCTTATCATGACGTGCTAG,1.67 z-score
TCATAATTCACTATTACACTGTGCTAG,0.744 z-score
TTAGGTATCCTTTTCCTCTAGTGCTAG,0.785 z-score
TCAGTTTTCAATTTTTGACTGTGCTAG,0.794 z-score
TTAGAACCGGGGACTGGATTAGTGCTA,-0.17 z-score
TTAGGCTTCGGGTATCGGTTAGTGCTA,2.59 z-score
TTAGATCTCAGTTCCGATTAGTGCTAG,1.29 z-score
ATAAACTTAGTTTTCAATTTGTGCTAG,0.0294 z-score
TTAGGACTGGACTATCGCTTAGTGCTA,-0.552 z-score
TTAGGTCCCGGTTTCGGTTAGTGCTAG,7.81 z-score
GACGGTTCCGGTTTCGGGCCGTGCTAG,4.96 z-score
GATGGTTTCCTTATCCTGACGTGCTAG,2.12 z-score
GACGAGCTGGGGTATCGAGACGTGCTA,1.11 z-score
TTAGGTATCGGTATCAGTTAGTGCTAG,9.76 z-score
